Published values pooled from the literature.
Each numbered part is a random draw from the data of one study; scales do not carry over between parts. ± marks the error that the study gave.
UniProt P34913, sequence (whole entry, looked up): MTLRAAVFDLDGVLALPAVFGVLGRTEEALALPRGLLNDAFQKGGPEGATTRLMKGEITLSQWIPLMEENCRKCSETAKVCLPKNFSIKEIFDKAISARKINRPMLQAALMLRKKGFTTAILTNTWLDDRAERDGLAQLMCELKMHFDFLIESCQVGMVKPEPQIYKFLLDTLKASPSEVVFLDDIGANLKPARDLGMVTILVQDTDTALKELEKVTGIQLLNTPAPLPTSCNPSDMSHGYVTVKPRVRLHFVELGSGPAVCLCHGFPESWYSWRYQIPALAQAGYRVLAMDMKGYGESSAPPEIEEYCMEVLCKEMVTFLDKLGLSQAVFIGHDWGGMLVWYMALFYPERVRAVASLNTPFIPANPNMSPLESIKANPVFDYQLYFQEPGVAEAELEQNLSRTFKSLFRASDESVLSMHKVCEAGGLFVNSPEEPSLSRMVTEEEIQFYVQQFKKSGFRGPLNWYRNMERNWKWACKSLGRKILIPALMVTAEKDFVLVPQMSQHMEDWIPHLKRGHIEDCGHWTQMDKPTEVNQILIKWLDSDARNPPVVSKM

Series 1
Structure (SMILES): Cc1cc(OCc2nnc(SC3CCCC3)n2-c2cccnc2)ccc1-c1ccc(S(C)(=O)=O)cc1
| cell line | GI50 |
| --- | --- |
| K562 | 0.21 µM |
| EKVX | 0.13 µM |
| MOLT-4 | 0.591 µM |

Single results of other studies
| Compound | tested on | test | test system | conditions | endpoint | value |
| --- | --- | --- | --- | --- | --- | --- |
| N#Cc1ccc(-c2csc(CNC(=O)C34CC(CN(C(=O)COCCF)C3)C4)n2)cc1 |  |  | Sprague Dawley rats male, plasma | oral, 3 mg/kg | half-life | 3.6 h |
| Cc1ccc(S(=O)(=O)Nc2c(N3CCC(NC(=O)Nc4ccc(C(F)(F)F)c(F)c4)CC3)c(=O)c2=O)cc1 | Bifunctional epoxide hydrolase 2 (EPHX2, Homo sapiens, UniProt P34913) |  |  |  | IC50 | 0.0178 ± 0.0011 µM |
| CC[C@@H]1C(=O)N(C)c2cnc(Nc3ccc(C(=O)NC4CCN(C)CC4)cc3OC)nc2N1C1CCCC1 | PHIP, BD2 (Homo sapiens, UniProt Q8WWQ0) | thermal stabilisation, thermal shift |  | 10 µM | ΔTm | -0.48 ± 0.3 °C |

Repeated from above (series 1):
| cell line | GI50 |
| --- | --- |
| MOLT-4 | 0.591 µM |
